# Published values from different studies.
# Every numbered part comes from another study and shows a few of its results, in no order. Values joined by “and” are separate records of one study, mostly repeats; a detail may differ.
# Sequence of UniProt P28566 (whole entry, looked up): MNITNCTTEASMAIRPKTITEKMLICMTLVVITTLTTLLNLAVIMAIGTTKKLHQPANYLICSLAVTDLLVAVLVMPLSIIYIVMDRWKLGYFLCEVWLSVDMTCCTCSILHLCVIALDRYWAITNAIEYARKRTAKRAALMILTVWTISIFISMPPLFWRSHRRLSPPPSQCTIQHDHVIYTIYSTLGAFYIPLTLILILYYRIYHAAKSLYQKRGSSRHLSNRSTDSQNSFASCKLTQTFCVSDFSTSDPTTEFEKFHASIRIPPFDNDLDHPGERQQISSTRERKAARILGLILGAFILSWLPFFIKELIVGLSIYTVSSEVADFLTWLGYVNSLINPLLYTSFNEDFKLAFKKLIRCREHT
# Sequence of UniProt Q99720 (whole entry, looked up): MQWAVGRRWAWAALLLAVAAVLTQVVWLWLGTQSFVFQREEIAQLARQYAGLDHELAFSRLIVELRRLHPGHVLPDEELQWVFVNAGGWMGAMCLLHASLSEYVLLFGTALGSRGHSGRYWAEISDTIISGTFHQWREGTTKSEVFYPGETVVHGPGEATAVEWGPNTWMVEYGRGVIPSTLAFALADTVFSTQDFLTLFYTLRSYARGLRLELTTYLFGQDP
# Sequence of UniProt P50406 (whole entry, looked up): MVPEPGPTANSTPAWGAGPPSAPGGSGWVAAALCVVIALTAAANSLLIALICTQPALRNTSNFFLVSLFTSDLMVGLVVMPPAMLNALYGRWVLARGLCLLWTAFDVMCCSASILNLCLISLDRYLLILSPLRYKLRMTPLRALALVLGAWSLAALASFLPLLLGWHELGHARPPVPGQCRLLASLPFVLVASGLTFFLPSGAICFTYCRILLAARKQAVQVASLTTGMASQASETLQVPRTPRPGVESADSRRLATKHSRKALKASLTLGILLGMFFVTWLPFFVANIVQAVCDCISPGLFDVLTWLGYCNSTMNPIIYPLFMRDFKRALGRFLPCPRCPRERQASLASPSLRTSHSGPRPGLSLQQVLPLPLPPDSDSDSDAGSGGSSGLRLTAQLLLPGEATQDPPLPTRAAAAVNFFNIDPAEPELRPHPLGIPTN
# Sequence of UniProt P08912 (whole entry, looked up): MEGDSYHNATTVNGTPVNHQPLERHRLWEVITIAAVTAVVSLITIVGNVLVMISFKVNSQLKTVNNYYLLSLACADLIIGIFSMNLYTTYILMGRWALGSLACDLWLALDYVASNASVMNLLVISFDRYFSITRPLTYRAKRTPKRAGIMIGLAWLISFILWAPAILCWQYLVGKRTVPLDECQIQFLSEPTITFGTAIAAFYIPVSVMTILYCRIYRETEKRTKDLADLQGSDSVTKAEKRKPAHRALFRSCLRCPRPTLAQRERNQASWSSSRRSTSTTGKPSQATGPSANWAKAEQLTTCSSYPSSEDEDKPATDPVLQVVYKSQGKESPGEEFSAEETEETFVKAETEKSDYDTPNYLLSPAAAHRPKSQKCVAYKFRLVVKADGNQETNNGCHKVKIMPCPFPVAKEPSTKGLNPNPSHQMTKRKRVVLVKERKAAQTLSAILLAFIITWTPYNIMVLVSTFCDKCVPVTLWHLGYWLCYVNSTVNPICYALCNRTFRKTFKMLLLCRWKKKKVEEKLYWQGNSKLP
# Sequence of UniProt P14416 (whole entry, looked up): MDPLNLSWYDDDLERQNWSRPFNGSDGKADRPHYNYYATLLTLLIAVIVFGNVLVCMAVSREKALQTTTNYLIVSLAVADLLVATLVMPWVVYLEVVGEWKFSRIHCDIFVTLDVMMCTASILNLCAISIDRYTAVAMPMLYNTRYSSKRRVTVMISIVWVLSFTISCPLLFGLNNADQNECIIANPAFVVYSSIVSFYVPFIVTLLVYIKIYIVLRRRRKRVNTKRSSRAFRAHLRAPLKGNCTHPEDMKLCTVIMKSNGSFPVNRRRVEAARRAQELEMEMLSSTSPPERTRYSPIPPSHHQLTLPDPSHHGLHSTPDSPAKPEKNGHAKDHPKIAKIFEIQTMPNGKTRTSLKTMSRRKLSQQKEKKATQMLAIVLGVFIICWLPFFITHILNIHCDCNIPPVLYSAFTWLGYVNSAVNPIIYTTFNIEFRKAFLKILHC
# Sequence of UniProt Q5BJF2 (whole entry, looked up): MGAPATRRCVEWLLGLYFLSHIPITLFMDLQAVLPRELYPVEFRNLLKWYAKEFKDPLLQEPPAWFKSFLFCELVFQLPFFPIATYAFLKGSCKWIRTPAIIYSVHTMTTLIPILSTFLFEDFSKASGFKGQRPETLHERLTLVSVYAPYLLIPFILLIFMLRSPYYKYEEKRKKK
# Sequence of UniProt P21917 (whole entry, looked up): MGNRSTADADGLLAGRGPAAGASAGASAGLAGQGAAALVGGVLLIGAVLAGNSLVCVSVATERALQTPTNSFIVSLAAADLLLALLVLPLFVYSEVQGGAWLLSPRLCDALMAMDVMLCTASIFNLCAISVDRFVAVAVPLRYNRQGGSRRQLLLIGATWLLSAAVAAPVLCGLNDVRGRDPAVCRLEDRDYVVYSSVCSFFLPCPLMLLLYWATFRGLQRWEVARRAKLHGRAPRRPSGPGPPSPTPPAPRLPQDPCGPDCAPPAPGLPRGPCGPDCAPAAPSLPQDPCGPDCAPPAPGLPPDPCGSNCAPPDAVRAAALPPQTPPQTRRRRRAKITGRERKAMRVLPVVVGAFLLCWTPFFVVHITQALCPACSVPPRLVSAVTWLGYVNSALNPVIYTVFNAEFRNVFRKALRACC
# Sequence of UniProt P35348 (whole entry, looked up): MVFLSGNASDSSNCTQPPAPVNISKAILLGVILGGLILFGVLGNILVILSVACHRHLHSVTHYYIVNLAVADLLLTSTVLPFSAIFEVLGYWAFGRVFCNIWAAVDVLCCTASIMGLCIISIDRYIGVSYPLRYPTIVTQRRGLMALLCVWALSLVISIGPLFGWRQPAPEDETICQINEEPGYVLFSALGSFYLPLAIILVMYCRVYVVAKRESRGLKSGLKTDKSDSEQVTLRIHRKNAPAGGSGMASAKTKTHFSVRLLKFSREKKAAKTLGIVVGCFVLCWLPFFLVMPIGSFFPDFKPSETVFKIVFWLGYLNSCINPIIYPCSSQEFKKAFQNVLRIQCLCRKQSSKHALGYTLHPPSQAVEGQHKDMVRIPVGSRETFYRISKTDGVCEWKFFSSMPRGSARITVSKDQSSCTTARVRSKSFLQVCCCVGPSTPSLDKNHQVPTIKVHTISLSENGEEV
# Sequence of UniProt P35462 (whole entry, looked up): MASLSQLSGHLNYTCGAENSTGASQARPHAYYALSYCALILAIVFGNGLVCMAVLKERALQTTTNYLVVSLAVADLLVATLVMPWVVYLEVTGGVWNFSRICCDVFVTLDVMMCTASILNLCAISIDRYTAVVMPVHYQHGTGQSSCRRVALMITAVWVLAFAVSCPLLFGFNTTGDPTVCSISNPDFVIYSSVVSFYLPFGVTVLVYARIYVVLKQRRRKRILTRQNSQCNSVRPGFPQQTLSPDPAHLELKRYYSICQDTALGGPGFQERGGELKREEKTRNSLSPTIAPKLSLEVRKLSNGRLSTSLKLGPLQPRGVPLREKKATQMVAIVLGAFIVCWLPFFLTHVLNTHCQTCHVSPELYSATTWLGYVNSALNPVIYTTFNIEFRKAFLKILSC
# Sequence of UniProt Q9Y5N1 (whole entry, looked up): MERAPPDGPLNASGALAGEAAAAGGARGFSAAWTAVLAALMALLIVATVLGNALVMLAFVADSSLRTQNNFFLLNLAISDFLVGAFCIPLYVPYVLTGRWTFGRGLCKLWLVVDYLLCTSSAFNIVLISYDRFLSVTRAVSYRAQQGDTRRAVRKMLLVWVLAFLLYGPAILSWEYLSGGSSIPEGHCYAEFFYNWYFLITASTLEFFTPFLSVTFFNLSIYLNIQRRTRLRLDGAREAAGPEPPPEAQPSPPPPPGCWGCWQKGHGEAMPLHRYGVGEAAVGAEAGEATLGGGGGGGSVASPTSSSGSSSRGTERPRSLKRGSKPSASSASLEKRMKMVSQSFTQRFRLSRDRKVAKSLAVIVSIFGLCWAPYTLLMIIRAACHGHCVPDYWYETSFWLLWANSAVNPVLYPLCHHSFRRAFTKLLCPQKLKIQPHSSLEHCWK

# Sample 1
# SMILES: COc1ccc2c(c1)O[C@@H](c1ccc(OC)c(OC)c1)C[C@H]2NC(=O)C1(c2ccc3c(c2)OC(F)(F)O3)CC1
# Concentration: 10 µM
target,observed,technique,inhibition [%]
"5-hydroxytryptamine receptor 1E (HTR1E, Homo sapiens, UniProt P28566)",cell-free assay,,1.27
"5-hydroxytryptamine receptor 1D (HTR1D, Homo sapiens, UniProt P28221)",cell-free assay,,6.1
"Sigma intracellular receptor 2 (TMEM97, Homo sapiens, UniProt Q5BJF2)",binding,radioligand binding,85.3
"Alpha-2A adrenergic receptor (ADRA2A, Homo sapiens, UniProt P08913)",binding,radioligand binding,14.9
"Alpha-1A adrenergic receptor (ADRA1A, Homo sapiens, UniProt P35348)",binding,radioligand binding,-12.5
"5-hydroxytryptamine receptor 6 (HTR6, Homo sapiens, UniProt P50406)",binding,radioligand binding,-15.9
"D(2) dopamine receptor (DRD2, Homo sapiens, UniProt P14416)",binding,radioligand binding,-7.27
"5-hydroxytryptamine receptor 1B (HTR1B, Homo sapiens, UniProt P28222)",binding,radioligand binding,-1
"Histamine H3 receptor (HRH3, Homo sapiens, UniProt Q9Y5N1)",binding,radioligand binding,10.4
"Sigma non-opioid intracellular receptor 1 (SIGMAR1, Homo sapiens, UniProt Q99720)",binding,radioligand binding,53
"Muscarinic acetylcholine receptor M5 (CHRM5, Homo sapiens, UniProt P08912)",binding,radioligand binding,16.1
"D(3) dopamine receptor (DRD3, Homo sapiens, UniProt P35462)",binding,radioligand binding,-9.23
"D(4) dopamine receptor (DRD4, Homo sapiens, UniProt P21917)",binding,radioligand binding,-6.5

# Sample 2
# SMILES: CC(C)n1cnc(-c2ccc(F)cc2)c1-c1ncc(C(=O)Nc2ccc(N3CCN(C)CC3)cc2)[nH]1
# Technique: phase 2a trial
# Species: idiopathic pulmonary fibrosis patients
item,dose,notes,adverse event incidence [%]
QRS axis abnormal,dose not given,"grade 3, all arms pooled",0
weight decreased,60 mg once daily,grade 3,0
general and administration site disorders,30 mg once daily,grade 2,0
synovitis,dose not given,"grade 4, all arms pooled",0
immunoglobulins increased,60 mg once daily,grade 4,0
general and administration site disorders,dose not given,"grade 4, all arms pooled",0
QRS axis abnormal,dose not given,"grade 4, all arms pooled",0
immunoglobulins increased,30 mg once daily,grade 4,0
QRS axis abnormal,60 mg once daily,grade 5,0

# Sample 3
# SMILES: CC(C)C[C@@H]1NC(=O)[C@@H](N(C)C(=O)[C@H](CC2CCC2)NC(=O)[C@@H]2C[C@@H](F)CN2C(=O)C2(C(F)(F)F)CC(F)(F)C2)CCCCNC(=O)C2(CC2)NC(=O)[C@H](Cc2cc(Cl)ccc2Cl)N(C)C1=O
# Cell line: NCI-H446
# Time: 5 days
# Reference: DMSO
technique,concentration,together with,cell growth
Vi-Cell counting,124 nM,Myt1 inhibitor 1000 nM,18.6% and 12.5%
cell counting,511 pM,,99% and 79.9%
Vi-Cell counting,371 nM,Myt1 inhibitor 1000 nM,9.21% and 6.31%
Vi-Cell counting,10 µM,Myt1 inhibitor 1000 nM,5.46% and 4.74%

# Sample 4
# SMILES: C=CCc1ccc(O)c(-c2cc(CC=C)ccc2O)c1
# Target: Anoctamin-1 (ANO1, Homo sapiens, UniProt Q5XXA6, del476-501)
# Sequence of UniProt Q5XXA6 (whole entry, unmodified, looked up): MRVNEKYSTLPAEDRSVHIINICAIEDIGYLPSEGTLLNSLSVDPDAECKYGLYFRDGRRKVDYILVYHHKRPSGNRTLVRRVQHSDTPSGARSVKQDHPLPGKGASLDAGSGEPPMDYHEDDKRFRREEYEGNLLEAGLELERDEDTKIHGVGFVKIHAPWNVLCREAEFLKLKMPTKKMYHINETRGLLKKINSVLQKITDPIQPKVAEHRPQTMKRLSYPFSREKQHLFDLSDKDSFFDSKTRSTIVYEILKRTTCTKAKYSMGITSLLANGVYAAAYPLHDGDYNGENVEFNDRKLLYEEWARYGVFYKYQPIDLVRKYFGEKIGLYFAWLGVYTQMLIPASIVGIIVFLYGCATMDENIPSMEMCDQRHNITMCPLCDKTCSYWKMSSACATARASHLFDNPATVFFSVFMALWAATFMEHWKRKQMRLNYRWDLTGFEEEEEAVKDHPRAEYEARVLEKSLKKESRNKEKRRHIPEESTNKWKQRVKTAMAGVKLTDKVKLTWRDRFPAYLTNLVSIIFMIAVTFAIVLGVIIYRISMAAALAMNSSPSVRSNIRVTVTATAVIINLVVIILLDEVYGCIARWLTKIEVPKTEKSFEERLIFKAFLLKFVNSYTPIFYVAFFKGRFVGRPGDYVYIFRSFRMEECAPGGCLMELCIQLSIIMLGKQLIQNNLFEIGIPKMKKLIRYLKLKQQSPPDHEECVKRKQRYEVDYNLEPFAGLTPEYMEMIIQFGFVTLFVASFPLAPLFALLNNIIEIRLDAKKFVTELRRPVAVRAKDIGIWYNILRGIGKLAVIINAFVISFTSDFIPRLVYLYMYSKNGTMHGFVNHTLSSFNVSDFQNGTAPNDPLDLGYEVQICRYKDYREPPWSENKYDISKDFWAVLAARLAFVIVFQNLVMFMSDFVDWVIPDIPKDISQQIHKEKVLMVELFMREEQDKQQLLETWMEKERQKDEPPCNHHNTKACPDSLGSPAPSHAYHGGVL
# Observed: chloride current
# Technique: whole-cell patch clamp
concentration,notes,together with,normalised current
10 µM,"80 mV, 300 nM free Ca2+",honokiol and magnolol 3 µM,0.382
3 µM,"60 mV, 300 nM free Ca2+",,0.364
10 µM,"100 mV, 300 nM free Ca2+",honokiol and magnolol 3 µM,0.562
30 µM,"60 mV, 300 nM free Ca2+",honokiol and magnolol 3 µM,0.098
100 µM,"-60 mV, 300 nM free Ca2+",,-0.0215
10 µM,"-20 mV, 300 nM free Ca2+",honokiol and magnolol 3 µM,-0.0315
100 µM,"60 mV, 300 nM free Ca2+",honokiol and magnolol 3 µM,0.0438
100 µM,"80 mV, 300 nM free Ca2+",honokiol and magnolol 3 µM,0.0849
30 µM,"20 mV, 300 nM free Ca2+",honokiol and magnolol 3 µM,0.0172
3 µM,"0 mV, 300 nM free Ca2+",,-0.000379
100 µM,"60 mV, 300 nM free Ca2+",,0.0888

# For quick reference, copied from above (sample 3):
technique,concentration,together with,cell growth
Vi-Cell counting,124 nM,Myt1 inhibitor 1000 nM,18.6% and 12.5%
cell counting,511 pM,,99% and 79.9%
Vi-Cell counting,371 nM,Myt1 inhibitor 1000 nM,9.21% and 6.31%
Vi-Cell counting,10 µM,Myt1 inhibitor 1000 nM,5.46% and 4.74%
